# Results collected from several papers.
# Values joined by “and” are separate records of one study, mostly repeats; a detail may differ. ± marks the error that the study gave.
Structure (SMILES),assay,test system,conditions,how to read,measurement,result
C[C@@H](O)[C@H](NC(=O)[C@H](CCCCN)NC(=O)COCCN)C(=O)N[C@@H](CCCNC(=N)N)C(=O)NC(C)(C)C(=O)N[C@@H](CCCNC(=N)N)C(=O)NC(C)(C)C(=O)N[C@H](C(=O)N[C@@H](CO)C(=O)N[C@@H](Cc1c[nH]cn1)C(=O)N[C@@H](Cc1ccc(O)cc1)C(=O)NCC(=O)O)[C@@H](C)O,,"C57BL/6 mouse, blood","intravenous, 50 mg/kg, 10 h",,alkaline phosphatase,100 to 214 U/L
COc1cc(C(=O)NCCOCCOCCOCCNC(=O)c2ccc([18F])nc2)ccc1NC(=O)C1NC(CC(C)(C)C)C(C#N)(c2ccc(Cl)cc2F)C1c1cccc(Cl)c1F (centres unmarked),HPLC,"BALB/c mice, plasma","intravenous, 1 h post injection",,intact compound,~30% and 30%
COc1ccc(C)cc1NC(=O)OC1CC2CCCC(C1)N2Cc1ccc(CC[18F])cc1 (centres unmarked),,"BALB/c mice, EMT6 tumour, brain",2 h,,tissue uptake,1.16 ± 0.09 %ID/g
CN(C)C(CNC(=O)Nc1cc(C(F)(F)F)ccc1N1CCOCC1)c1ccncc1 (centres unmarked),,"mouse, serum","intraperitoneal, 180 mg/kg single dose",,serum glucose,242 mg/dL
"O=C(c1ccc(F)cc1)C1CCN(C2Cc3c(cccc3OCC[18F])CC2O)CC1 (single isomer, unassigned; (-))",,"Sprague-Dawley rat, male, blood","intravenous, dose not given, 30 min",,tissue uptake,0.27 ± 0.033 %ID/g
COc1cc(NC(=O)C(=O)c2c(C)n(Cc3ccc(Cl)cc3)c3ccc(C)cc23)ccn1,,"male cynomolgus monkey, plasma","intravenous, 1 mg/kg",,Vz,11.2 L/kg
C[C@H]1N=C(c2ccccc2F)c2cc(Br)ccc2-n2cnc(C(=O)NCCS(=O)(=O)O)c21,,Swiss Webster mouse,"oral, 750 µg of parent drug, 0 to 48 h",baseline: dose,excretion in urine and feces,2.9 ± 0.8%
CC(C)[C@H](NC(=O)CNC(=O)[C@H](CCC(N)=O)NC(=O)[C@H](C)N)C(=O)O,,human,10 mg/kg single dose,,discontinuation due to adverse events,0%
CCCCCCCC(=O)OC[C@H](NC(=O)[C@H](CO)NC(=O)CN)C(=O)N[C@@H](Cc1ccccc1)C(=O)N[C@@H](CC(C)C)C(=O)N[C@@H](CO)C(=O)N1CCC[C@H]1C(=O)N[C@@H](CCC(=O)O)C(=O)N[C@@H](Cc1cnc[nH]1)C(=O)N[C@@H](CCC(N)=O)C(=O)N[C@@H](CCCNC(=N)N)C(=O)N[C@H](C(=O)N[C@@H](CCC(N)=O)C(=O)N[C@@H](CCC(N)=O)C(=O)N[C@@H](CCCNC(=N)N)C(=O)N[C@@H](CCCCN)C(=O)N[C@@H](CCC(=O)O)C(=O)N[C@@H](CO)C(=O)N[C@@H](CCCCN)C(=O)N[C@@H](CCCCN)C(=O)N1CCC[C@H]1C(=O)N1CCC[C@H]1C(=O)N[C@@H](C)C(=O)N[C@@H](CCCCN)C(=O)N[C@@H](CC(C)C)C(=O)N[C@@H](CCC(N)=O)C(=O)N1CCC[C@H]1C(=O)N[C@@H](CCCNC(=N)N)C(=O)O)C(C)C,,"human, plasma","intravenous infusion, 1 µg/kg/h, 65 min infusion",,dose-normalised Cmax,3.87 ± 3.46
COc1cc2c3c(c4cc(OC)c(OC)cc4c2cc1OC)CN1CCCCC1C3 (centres unmarked),,"Sprague-Dawley rat, male","intravenous, dose not given",,clearance,101 mL/min/kg
CCOP(=O)(OCC)OCCCCOC(=O)CC1=C(C)/C(=C/c2ccc([S+](C)[O-])cc2)c2ccc(F)cc21 (centres unmarked),,"rat, muscle","topical, dose not given",,Cmax,680 nmol/g tissue
CCCCCCCC/C=C\CCCCCCCCOP(O)(O)=S.N,,"mouse, female, irradiated","sc, dose not given, 15.6 Gy partial-body, dosed 24 h after",,Cmax,407 ng/mL
COC(=O)C[C@](O)(CCCC(C)(C)OC(C)=O)C(=O)O[C@@H]1C(OC)=C[C@]23CCCN2CCc2cc4c(cc2[C@H]13)OCO4,,"CD1 mouse, large intestine","oral, 1 mg/kg, 2 h",,tissue concentration,100 ng/mL
CC(C)C[C@@H](N)C(=O)NCC(=O)N[C@H](C)C(=O)N[C@H](CO)C(=O)N[C@H](Cc1c[nH]c2ccccc12)C(=O)N[C@H](Cc1c[nH]cn1)C(=O)N[C@H](CCCNC(=N)N)C(=O)N1CCC[C@@H]1C(=O)N[C@H](CC(=O)O)C(=O)N[C@H](CCCCN)C(=O)N[C@H](CS)C(=O)N[C@H](CS)C(=O)N[C@H](CC(C)C)C(=O)NCC(=O)N[C@H](Cc1ccc(O)cc1)C(=O)N[C@H](CCC(N)=O)C(=O)N[C@H](CCCCN)C(=O)N[C@H](CCCNC(=N)N)C(=O)N1CCC[C@@H]1C(=O)N[C@H](CC(C)C)C(=O)N1CCC[C@@H]1C(N)=O,LC-MS/MS,rat plasma,"25 ng/mL, 12 h, 25 °C, room temperature before extraction",,measured concentration,24.4 ± 2.7 ng/mL
C1=[N+]2CCCC[N+]3=Cc4ccc5[n]4[Au-]23[n]2c1ccc2-c1nc2ccccc2nc1-5.F[P-](F)(F)(F)(F)F,,female athymic nude mice,"intraperitoneal, 100 to 400 mg/kg/dose, 17 d",,survival,100%
[11CH3]n1c(=O)n(CCCO)c(=O)c2c1nc(Oc1cccc(OC(F)(F)F)c1)n2Cc1ccc(Cl)cc1,ex vivo biodistribution,"Sprague Dawley rat, liver",60 min post injection,,tracer uptake,2.22 ± 0.42 %ID/g
C[C@@H]1CC[C@H]2[C@@H](C)CO[C@@H]3O[C@@]4(C)CC[C@@H]1[C@]32OO4,item: compound,"rat, plasma","800 ng/mL spiked, three freeze/thaw cycles",,measured concentration,775 ± 42.8 ng/mL
O.[C-]#[O+].[C-]#[O+].[C-]#[O+].[Re+].c1cnc2c(c1)ccc1cccnc12,"RP-HPLC C18 column, item: free diimine ligand","MeCN:water 40:60, 0.1% TFA",isocratic elution,,capacity factor,0.44
CC(C)C[C@H](NC(=O)[C@H](CCCCN)NC(=O)[C@H](CCC(=O)O)NC(=O)[C@H](C)NC(=O)[C@@H](NC(=O)[C@H](CCCCN)NC(=O)[C@H](CC(=O)O)NC(=O)[C@H](Cc1ccc(O)cc1)NC(=O)[C@H](Cc1ccccc1)NC(=O)[C@H](C)NC(=O)[C@H](CCCCN)NC(=O)[C@H](CC(C)C)NC(=O)[C@H](Cc1c[nH]c2ccccc12)NC(=O)[C@@H](N)CC(=O)O)C(C)C)C(=O)N[C@@H](CCCCN)C(=O)N[C@@H](CCC(=O)O)C(=O)N[C@@H](C)C(=O)N[C@@H](Cc1ccccc1)C(=O)N1CCC[C@H]1C(=O)N[C@@H](CC(=O)O)C(=O)N[C@@H](Cc1c[nH]c2ccccc12)C(=O)N[C@@H](C)C(=O)N[C@@H](CCCCN)C(=O)N[C@@H](C)C(=O)N[C@@H](C)C(=O)N[C@@H](Cc1ccc(O)cc1)C(=O)N[C@@H](CC(=O)O)C(=O)N[C@@H](CCCCN)C(=O)N[C@@H](C)C(=O)N[C@@H](C)C(=O)N[C@@H](CCC(=O)O)C(=O)N[C@@H](CCCCN)C(=O)N[C@@H](C)C(=O)N[C@@H](CCCCN)C(=O)N[C@@H](CCC(=O)O)C(=O)N[C@@H](C)C(=O)N[C@@H](C)C(=O)O,LC-MS/MS,"cynomolgus monkey, male, plasma","IV infusion, 75 mg/kg/dose, day 1, 30 min infusion",,CL,0.15 mL/min/kg
CC[C@@H]1C[C@]1(NC(=O)[C@@H]1C[C@@]2(CN1C(=O)[C@@H](NC(=O)[C@@H](NC(=O)[C@@H]1CCCCN1C(C)C)C1CCCCC1)C(C)(C)C)C(C)(C)C21CCC1)C(=O)NS(=O)(=O)N1CCCC1,item: nausea,human fed,"oral, 100 mg single dose",,subjects with adverse event,0%
CC(C)C[C@H](NC(=O)[C@H](Cc1ccc(O)cc1)NC(=O)[C@H](Cc1c[nH]cn1)NC(=O)[C@H](CC(=O)O)NC(=O)[C@H](CC(C)C)NC(=O)[C@H](C)NC(=O)[C@H](CC(C)C)NC(=O)CNC(=O)CNC(=O)[C@@H](NC(=O)[C@@H](NC(=O)[C@H](CCCCN)NC(=O)CNC(=O)[C@@H](NC(=O)[C@H](CCCCN)NC(=O)[C@H](CCCCN)NC(=O)[C@H](C)NC(=O)[C@H](CCCCN)NC(=O)[C@H](CCCNC(=N)N)NC(=O)[C@H](Cc1ccccc1)NC(=O)[C@@H](NC(=O)[C@H](CO)NC(=O)[C@H](CCCCN)NC(=O)[C@H](Cc1c[nH]c2ccccc12)NC(=O)CN)C(C)C)C(C)C)[C@@H](C)O)C(C)C)C(N)=O,,zebrafish embryos,"1 h, 4, 28, 52 hpf",,acute toxic concentration,5 µg/mL
CCNc1cc2[o+]c3cc(NCC)c(C)cc3c(-c3ccccc3C(=O)OCCOCC[18F])c2cc1C,,"rat, spleen",30 min,,tissue uptake,2.01 ± 0.17 %ID/g
N#CC1(c2ccc3c(N)ncnn23)OC(COP(=O)(O)OP(=O)(O)OP(=O)(O)O)C(O)C1O (centres unmarked),LC-MS/MS,"male CD-1 mice, lung","oral, 100 mg/kg of remdesivir",,last detectable time,≤ 4 h
O=C1C(P(=O)(O)O)CCCN1O (centres unmarked),,nude mice,"intravenous, dose escalation",,tolerated dose,≤ 300 mg/kg/day
O=C(C[P+]([Au-][Cl])(c1ccccc1)c1ccccc1)[O][Ti+2][O]C(=O)C[P+]([Au-][Cl])(c1ccccc1)c1ccccc1.c1cc[cH-]c1.c1cc[cH-]c1,general toxicity,mouse,subcutaneous,,MTD,10 mg/kg/day
CCCCCc1ccc(S(=O)(=O)N2CC2C(=O)OC)cc1 (centres unmarked),,rodent,"oral, estimated from 3T3 IC50",,LD50,530 ± 45 mg/kg
CCCCCCCCCCCCC(=O)O.O=C1CCCC2C3CCCN4CCCC(CN12)C34 (centres unmarked),,water,"concentration not given, 298.15 K",,limiting apparent molar volume,424.25 ± 0.2 cm³/mol
CC[C@H](C)C(=O)N1CCC(NC(=O)Nc2ccc(OC(F)(F)F)c(F)c2)CC1,,healthy volunteers,"oral, 0.5 mg single dose",,subjects with limb injury TEAE,0%
CC[C@H](C)[C@H](NC(=O)CNC(=O)[C@@H](NC(=O)[C@H](Cc1ccc(O)cc1)NC(=O)[C@@H](NC(=O)[C@H](CO)NC(=O)[C@@H](NC(=O)[C@H](C)NC(=O)[C@@H]1CCCN1C(=O)[C@@H](NC(=O)[C@H](Cc1ccccc1)NC(=O)[C@H](CCCCN)NC(=O)[C@H](CCC(=O)O)NC(=O)[C@H](Cc1ccc(O)cc1)NC(=O)[C@H](CC(C)C)NC(=O)[C@H](CC(=O)O)NC(=O)[C@H](CCCNC(=N)N)NC(=O)[C@H](CC(C)C)NC(=O)[C@H](CCCCN)NC(=O)[C@H](CCC(=O)O)NC(=O)[C@H](Cc1ccccc1)NC(=O)[C@@H](NC(=O)[C@H](CCC(=O)O)NC(=O)[C@H](CCCCN)NC(=O)[C@H](CC(C)C)NC(=O)[C@H](Cc1ccc(O)cc1)NC(=O)[C@@H](N)CC(=O)O)C(C)C)[C@@H](C)O)C(C)C)[C@@H](C)O)[C@@H](C)O)C(=O)N[C@@H](Cc1ccccc1)C(=O)N[C@H](C(=O)N[C@@H](CC(=O)O)C(=O)N[C@@H](CCC(N)=O)C(=O)N[C@H](C(=O)N[C@@H](CC(C)C)C(=O)N[C@@H](CO)C(=O)N[C@H](C(=O)N[C@@H](CC(C)C)C(=O)N[C@@H](CCCCN)C(=O)NCC(=O)N[C@@H](CCC(=O)O)C(=O)N[C@@H](CCC(=O)O)C(=O)O)C(C)C)C(C)C)[C@@H](C)O,,cynomolgus monkey,"intravenous, 8 and 80 mg/kg",,terminal half-life,42 to 50 h

# Repeated from above:
Structure (SMILES),assay,test system,conditions,how to read,measurement,result
COC(=O)C[C@](O)(CCCC(C)(C)OC(C)=O)C(=O)O[C@@H]1C(OC)=C[C@]23CCCN2CCc2cc4c(cc2[C@H]13)OCO4,,"CD1 mouse, large intestine","oral, 1 mg/kg, 2 h",,tissue concentration,100 ng/mL
[11CH3]n1c(=O)n(CCCO)c(=O)c2c1nc(Oc1cccc(OC(F)(F)F)c1)n2Cc1ccc(Cl)cc1,ex vivo biodistribution,"Sprague Dawley rat, liver",60 min post injection,,tracer uptake,2.22 ± 0.42 %ID/g
